Results collected from several papers.
Each numbered part is a random draw from the data of one study; scales do not carry over between parts.

Series 1 — technique: RNAcompete; molecule type: RNA; sample: in vitro; tested at: 20 nM; notes: 7-mer, probes averaged, single round; baseline: mean of 7-mers; reading: higher = stronger binding
Target: PABPC1L2, full length, GST fusion (mouse, UniProt A0ABA7IW68)
Residues (chain): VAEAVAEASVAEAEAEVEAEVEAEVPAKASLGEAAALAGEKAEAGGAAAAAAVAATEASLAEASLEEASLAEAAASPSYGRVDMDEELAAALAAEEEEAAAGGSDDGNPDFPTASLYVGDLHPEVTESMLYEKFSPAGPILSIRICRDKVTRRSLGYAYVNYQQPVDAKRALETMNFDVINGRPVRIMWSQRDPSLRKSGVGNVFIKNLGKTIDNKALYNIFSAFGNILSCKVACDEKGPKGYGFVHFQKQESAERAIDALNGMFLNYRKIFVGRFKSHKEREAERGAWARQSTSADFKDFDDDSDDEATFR
Strand | 7-mer Z-score
CAAAGGC | 0.142
UCCCAUG | -0.45
UGAUGCG | -0.182
CUUGAGC | -0.197
CUUACGA | -0.117
CUAUAAG | -0.115
CGGAAUU | -0.0246
GAGCCUC | -0.458

Series 2 — cell line: HEK-293T; effect on: pseudovirus infection; organism: VSV pseudotyped with SARS-CoV-2 spike; tested at: 10 µM; time: 16 h; baseline: vehicle-treated
SMILES | GFP-positive cells [%]
CC(C)c1nc(N(C)S(C)(=O)=O)nc(-c2ccc(F)cc2)c1/C=C/[C@@H](O)C[C@@H](O)CC(=O)O | 91.6
C[C@]12COC(=O)C[C@@H]1CC[C@@H]1[C@@H]2CC[C@@]2(C)[C@H]1CC[C@]2(C)O | 82.3
C=C1[C@H](CO)[C@@H](O)C[C@@H]1n1cnc2c(=O)[nH]c(N)nc21 | 99.8

Series 3 — action: inhibitor; tested at: 20 µM
Target: Replicase polyprotein 1ab, nsp13 helicase (rep, Severe acute respiratory syndrome coronavirus 2, UniProt P0DTD1)
SMILES | inhibition [%]
CC(=O)[C@@]12O[C@](C)(c3ccccc3)O[C@@H]1C[C@H]1[C@@H]3CCC4=CC(=O)CC[C@]4(C)[C@H]3CC[C@@]12C | 7.01
C=CC(=O)N1CCC(Oc2cc3c(Nc4ccc(Cl)c(Cl)c4F)ncnc3cc2OC)CC1 | -0.45
Cn1cc(C2=C(c3ccc(Cl)cc3Cl)C(=O)NC2=O)c2ccccc21 | -1.31
COc1nc2ccc(Br)cc2cc1[C@@H](c1ccccc1)[C@@](O)(CCN(C)C)c1cccc2ccccc12 | 92.3
C[C@@H]1[C@H](O)[C@@H](C)/C=C/C=C/C=C/C=C/C=C/C=C/C=C/[C@H](O[C@@H]2O[C@H](C)[C@@H](O)[C@H](N)[C@@H]2O)C[C@@H]2O[C@](O)(C[C@@H](O)C[C@@H](O)[C@H](O)CC[C@@H](O)C[C@@H](O)CC(=O)O[C@H]1C)C[C@H](O)[C@H]2C(=O)O | 15.7
CCC(=O)N[C@@H]1Cc2ccccc2[C@H](c2ccccc2)C1 | 2.73
C[C@@H]1CC2C3CCC4=CC(=O)C=C[C@]4(C)[C@@]3(F)[C@@H](O)C[C@]2(C)[C@H]1C(=O)CO (stereo partly drawn) | 1
CC(=O)[C@@]1(O)CC[C@H]2[C@@H]3CCC4=CC(=O)CC[C@]4(C)[C@H]3CC[C@@]21C | 3.12
COc1ccc2nc3n[nH]c(C)c3c(NCCOCCO)c2c1 | -0.27

Further values, each from its own experiment
SMILES | target | effect on | action | tested at | notes | quantity | value
NC(=S)N/N=C/c1coc2ccccc2c1=O | Replicase polyprotein 1ab, main protease (rep, Severe acute respiratory syndrome coronavirus 2, UniProt P0DTD1) | enzyme activity | inhibitor | 20 µM | primary screen | inhibition | 76%

Some of these lines once more (series 3):
SMILES | inhibition [%]
C=CC(=O)N1CCC(Oc2cc3c(Nc4ccc(Cl)c(Cl)c4F)ncnc3cc2OC)CC1 | -0.45
Cn1cc(C2=C(c3ccc(Cl)cc3Cl)C(=O)NC2=O)c2ccccc21 | -1.31
COc1nc2ccc(Br)cc2cc1[C@@H](c1ccccc1)[C@@](O)(CCN(C)C)c1cccc2ccccc12 | 92.3
